# Experimental data collected from several papers.
# Lines come from different studies, so protocols differ. ± marks the error that the study gave.
# rep main protease: Replicase polyprotein 1ab, main protease (rep, Severe acute respiratory syndrome coronavirus 2, UniProt P0DTD1)
Structure (SMILES),target or system,test,test system,conditions,how to read,quantity,result
CC(C)(C)[C@H](NC(=O)C(F)(F)F)C(=O)N1C[C@H]2[C@@H]([C@H]1C(=O)N[C@H](C#N)C[C@@H]1CCNC1=O)C2(C)C,SARS-CoV-2,"viral replication, infectious virus",Vero E6,0.00195 µM,,inhibition,18.3%
NC(=O)c1cc(C(=O)NC[C@H]2CN(C(=O)/C=C/c3cccnc3)Cc3ccccc32)c[nH]1,rep main protease,"enzyme activity, inhibitor",,"5 µM, mean of runs",,inhibition,34.4%
Oc1cc2c(cc1O)[C@H]1c3ccccc3CN[C@@H]1CC2 (racemic),SARS-CoV-2,"viral replication, GFP plate reader screen",,cell-based,,EC50,7.94 µM
Cn1cnc(Cn2c(=O)[nH]/c(=N\c3cc4cn(C)nc4cc3Cl)n(Cc3cc(F)c(F)cc3F)c2=O)n1,,,"human, moderate renal impairment","oral, 375 mg",,"any TEAE, severe severity",0%
O=C(O)CCc1nc(-c2ccccc2)c(-c2ccccc2)o1,SARS-CoV-2,"viral replication, high-content imaging screen",,cell-based,,EC50,> 50.1 µM
COc1cc2c(cc1OCC1CC1)NC(=O)C21CCN(c2cc(NC3CC3)ncn2)CC1,SARS-CoV-2,"cytopathic effect, cell-based CPE",USA_WA1/2020,"round 1, 5-point dilution",,AC50,15.8 µM
COc1ccc(C[C@@H]2c3cc(Oc4cc(C[C@@H]5c6cc(O)c(OC)cc6CCN5C)ccc4O)c(OC)cc3CCN2C)cc1,SARS-CoV-2,viral replication,Vero E6,3.125 µM,baseline: mean of replicates,CPE inhibition,0%
CN(C)CCCn1cc(-c2ccccc2)c(-c2ccccc2)n1,SARS-CoV-2,"viral replication, GFP plate reader screen",,cell-based,,EC50,14.5 µM
CC(C)=CCc1c(O)ccc(C(=O)/C=C/c2ccc(O)cc2)c1O,SARS-CoV-2,viral cytopathic effect,Vero E6,100 µM,,mean inhibition,90%
CC(=O)N1CCN([C@H]2CCN(C(=O)N(C)[C@H](C)c3cc(C(F)(F)F)cc(C(F)(F)F)c3)[C@@H](c3ccc(F)cc3C)C2)CC1,SARS-CoV-2,"viral replication, GFP plate reader screen",,cell-based,,EC50,> 25.1 µM
CC[C@H](C)[C@H](NC(=O)[C@H](CC(C)C)NC(=O)[C@H](Cc1c[nH]c2ccccc12)NC(=O)[C@H](CCC(N)=O)NC(=O)[C@@H](NC(=O)[C@H](Cc1ccccc1)NC(=O)[C@H](C)NC(=O)[C@H](CCCCNC(=O)COCCOCCNC(=O)COCCOCCNC(=O)CC[C@H](NC(=O)CCCCCCCCCCCCCCCCCCC(=O)O)C(=O)O)NC(=O)[C@H](CCC(N)=O)NC(=O)[C@H](C)NC(=O)[C@@H](NC(=O)[C@H](CCCCN)NC(=O)[C@H](CC(=O)O)NC(=O)[C@H](CC(C)C)NC(=O)C(C)(C)NC(=O)[C@@H](NC(=O)[C@H](CO)NC(=O)[C@H](Cc1ccc(O)cc1)NC(=O)[C@H](CC(=O)O)NC(=O)[C@H](CO)NC(=O)[C@@H](NC(=O)[C@H](Cc1ccccc1)NC(=O)[C@@H](NC(=O)CNC(=O)[C@H](CCC(=O)O)NC(=O)C(C)(C)NC(=O)[C@@H](N)Cc1ccc(O)cc1)[C@@H](C)O)[C@@H](C)O)[C@@H](C)CC)[C@@H](C)CC)C(C)C)C(=O)N[C@@H](C)C(=O)NCC(=O)NCC(=O)N1CCC[C@H]1C(=O)N[C@@H](CO)C(=O)N[C@@H](CO)C(=O)NCC(=O)N[C@@H](C)C(=O)N1CCC[C@H]1C(=O)N1CCC[C@H]1C(=O)N1CCC[C@H]1C(=O)N[C@@H](CO)C(N)=O,,,"healthy subjects, single ascending dose","0.5 mg, baseline",,serum lipase,28.8 ± 19.1 U/L
CCCCNC(=O)C1CCCN(Cc2nc(-c3ccc(Cl)cc3)oc2C)C1 (stereo not shown),SARS-CoV-2,cytopathic effect,USA_WA1/2020,"round 2, 5-point",,efficacy,51.9%
CNC(=O)[C@@H](NC(=O)[C@H](CC(C)C)[C@H](O)C(=O)NO)C(C)(C)C,,,"PB population, mouse","intravenous, 120 µg/mouse, 24 h, preincubated with venom, with: Daboia russelii venom 2.5 x LD50",,survival,100%
CC(C)[C@H](N)C(=O)N1CCC[C@H]1B(O)O.CS(=O)(=O)O,rep main protease,"reporter gene (Gaussia luciferase), inhibitor",,20 µM,,inhibition,0.104%
CCC1(CC)C(=O)NCC(C)C1=O (stereo not shown),SARS-CoV-2,"viral replication, high-content imaging screen",,cell-based,,EC50,> 25.1 µM
Nc1ncnc2c([C@@H]3N[C@H](CO)[C@@H](O)[C@H]3O)c[nH]c12,Lassa mammarenavirus,viral replication,"HeLa, Josiah",0.4 µM,,inhibition,4.3%
COc1ccccc1C(=O)NC1CCCN(Cc2cccc(-c3ccc(C)c(Cl)c3)c2)C1 (stereo not shown),SARS-CoV-2,cytopathic effect,USA_WA1/2020,"round 1, 5-point",,efficacy,75.3%
O=C(O[C@@H]1Cc2c(O)cc(O)cc2O[C@@H]1c1cc(O)c(O)c(O)c1)c1cc(O)c(O)c(O)c1,SARS-CoV-2,viral replication,Vero E6,50 µM,baseline: mean of replicates,CPE inhibition,90%
CNCCN(C)c1nc(NC(C)c2ccccc2)c2ccccc2n1 (stereo not shown),SARS-CoV-2,"cytopathic effect, cell-based CPE",USA_WA1/2020,"round 2, 5-point dilution",,efficacy,117%
O=C(/C=C/c1ccc(O)c(O)c1/C=C/c1ccc(O)c(O)c1)O[C@H](Cc1ccc(O)c(O)c1)C(=O)O,SARS-CoV-2,viral replication,Vero E6,25 µM,,CPE inhibition,0%
COc1ccc(Cl)cc1NC(=O)CSc1nc2ccccc2nc1N1CCCCC1,SARS-CoV-2,"cytopathic effect, cell-based CPE",USA_WA1/2020,"round 1, 5-point dilution",,AC50,12.6 µM
C[C@@H]1CC[C@]2(C(=O)O[C@@H]3O[C@H](CO)[C@@H](O)[C@H](O)[C@H]3O)CC[C@]3(C)C(=CC[C@@H]4[C@@]5(C)C[C@@H](O)[C@H](O)C(C)(C)[C@@H]5CC[C@]43C)[C@@H]2[C@]1(C)O,rep main protease,"reporter gene (mKate2), inhibitor",,20 µM,,inhibition,-0.0103%

# A few entries again:
Structure (SMILES),target or system,test,test system,conditions,how to read,quantity,result
COc1ccccc1C(=O)NC1CCCN(Cc2cccc(-c3ccc(C)c(Cl)c3)c2)C1 (stereo not shown),SARS-CoV-2,cytopathic effect,USA_WA1/2020,"round 1, 5-point",,efficacy,75.3%
